Measurements from different studies.
Protocols differ between the studies behind these lines.
CYP2C19: Cytochrome P450 2C19 (CYP2C19, Homo sapiens, UniProt P33261)
Sequence of UniProt P33261 (whole entry, looked up): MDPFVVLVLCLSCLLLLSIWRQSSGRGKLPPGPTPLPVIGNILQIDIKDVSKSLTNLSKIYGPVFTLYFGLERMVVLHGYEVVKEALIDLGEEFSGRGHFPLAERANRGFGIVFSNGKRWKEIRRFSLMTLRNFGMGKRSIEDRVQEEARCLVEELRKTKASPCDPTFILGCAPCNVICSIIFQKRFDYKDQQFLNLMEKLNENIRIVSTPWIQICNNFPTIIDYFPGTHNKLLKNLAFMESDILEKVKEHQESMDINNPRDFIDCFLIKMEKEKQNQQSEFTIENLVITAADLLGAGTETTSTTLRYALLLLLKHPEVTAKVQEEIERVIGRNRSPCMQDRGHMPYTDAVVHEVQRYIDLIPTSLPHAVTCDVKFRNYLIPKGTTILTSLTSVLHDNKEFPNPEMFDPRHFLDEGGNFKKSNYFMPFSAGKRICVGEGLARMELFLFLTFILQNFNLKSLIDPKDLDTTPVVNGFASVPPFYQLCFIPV
ALB: Albumin (ALB, Homo sapiens, UniProt P02768)
Sequence of UniProt O15245 (whole entry, looked up): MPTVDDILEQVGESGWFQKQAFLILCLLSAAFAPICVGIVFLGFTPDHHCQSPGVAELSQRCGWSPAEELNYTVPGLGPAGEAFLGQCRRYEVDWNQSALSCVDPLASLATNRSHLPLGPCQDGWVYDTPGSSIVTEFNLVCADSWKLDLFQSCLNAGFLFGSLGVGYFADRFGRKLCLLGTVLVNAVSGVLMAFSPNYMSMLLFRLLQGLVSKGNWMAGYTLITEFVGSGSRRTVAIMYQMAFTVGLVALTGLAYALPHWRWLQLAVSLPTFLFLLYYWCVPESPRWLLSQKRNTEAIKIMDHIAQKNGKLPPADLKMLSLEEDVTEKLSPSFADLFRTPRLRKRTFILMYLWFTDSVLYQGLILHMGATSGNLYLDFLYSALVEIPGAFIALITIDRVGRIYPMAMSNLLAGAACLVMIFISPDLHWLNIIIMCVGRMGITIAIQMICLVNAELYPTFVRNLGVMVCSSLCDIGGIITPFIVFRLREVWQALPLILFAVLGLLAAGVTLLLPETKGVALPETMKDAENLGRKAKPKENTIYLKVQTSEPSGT
Sequence of UniProt P08684 (whole entry, looked up): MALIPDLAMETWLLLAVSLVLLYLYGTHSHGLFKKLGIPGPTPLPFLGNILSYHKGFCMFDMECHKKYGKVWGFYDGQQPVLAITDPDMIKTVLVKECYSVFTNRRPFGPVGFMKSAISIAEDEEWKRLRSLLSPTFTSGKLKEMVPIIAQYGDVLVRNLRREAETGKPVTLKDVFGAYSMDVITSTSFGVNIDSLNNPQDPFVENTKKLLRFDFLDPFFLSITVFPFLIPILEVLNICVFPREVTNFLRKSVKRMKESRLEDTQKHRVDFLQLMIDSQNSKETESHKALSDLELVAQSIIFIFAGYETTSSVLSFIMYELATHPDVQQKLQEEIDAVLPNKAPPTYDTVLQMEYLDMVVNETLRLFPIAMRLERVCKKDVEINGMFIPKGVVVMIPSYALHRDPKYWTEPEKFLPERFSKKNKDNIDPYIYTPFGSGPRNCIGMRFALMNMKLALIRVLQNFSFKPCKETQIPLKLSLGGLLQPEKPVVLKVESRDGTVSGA

| SMILES | target | test | system | setting | how to read | measurement | value |
| --- | --- | --- | --- | --- | --- | --- | --- |
| COc1ccc2nc([S+]([O-])Cc3ncc(CO)c(OC)c3C)[nH]c2c1 (centres unmarked) | CYP2C19 |  | human, plasma | oral, 20 mg omeprazole, Day 14, together with: encorafenib at steady state | relative to: Day -7 | total AUClast decrease | 37% |
| CCC(CC)C(=O)Oc1cccc(C(O)CCN)c1.O=CO (centres unmarked) | porcine liver esterase |  |  | 99 µM, 30 min | relative to: time 0 min | compound remaining | 60.8% |
| CCc1cc(/C(C)=N/OCc2ccc(C3CCCCC3)c(C(F)(F)F)c2)ccc1CN1CC(C(=O)O)C1 | SLC22A1 (Homo sapiens, UniProt O15245) | inhibitor | HEK293 transfected with SLC22A1 | up to 24.3 µM, 5 min, together with: MPP+ 0.025 µM |  | maximal inhibition | 4.9% |
| COc1cc(-c2[o+]c3cc(O)cc(O)c3cc2O[C@@H]2O[C@H](CO)[C@@H](O)[C@H](O)[C@H]2O)ccc1O | ALB | visible absorption spectroscopy | acetonitrile–HSA system | 50 µM, pH 7, together with: HSA 200 µM |  | λmax | < 600 nm |
| Cc1cc(C)c(CNC(=O)c2cc(Cl)c3c(c2C)O[C@@](C)([C@H]2CC[C@H](N(C)C)CC2)O3)c(=O)[nH]1 | ALB | ultracentrifugation | 4% human serum albumin solution | 1000 ng/mL, 160 min |  | unbound fraction | 0.613 |
| NCCC(O)c1cccc(OC(=O)C2CCCCC2)c1.O=CO (centres unmarked) | porcine liver esterase |  |  | 99 µM, 5 min | relative to: time 0 min | compound remaining | 84.6% |
| COc1ccc2[nH]c([S+]([O-])Cc3ncc(C)c(OC)c3C)nc2c1 (centres unmarked) | CYP2C19 | measured: 5-hydroxyomeprazole | human, plasma | oral, 20 mg omeprazole, day 14, cocktail with binimetinib and encorafenib |  | AUC(0-t) | 674 ng·h/mL |
| CC[C@H]1[C@@H](O)[C@@H]2[C@H](CC[C@]3(C)[C@@H]([C@H](C)CCNC(=O)NS(=O)(=O)c4ccc(C(C)(C)C)cc4)CC[C@@H]23)[C@@]2(C)CC[C@@H](O)C[C@@H]12 | Cytochrome P450 3A4 (CYP3A4, Homo sapiens, UniProt P08684) | substrate | human, plasma | 10 mg, alone, study day 1 |  | half-life mean | 10.5 h |

Repeated from above:
| SMILES | target | test | system | setting | how to read | measurement | value |
| --- | --- | --- | --- | --- | --- | --- | --- |
| COc1ccc2nc([S+]([O-])Cc3ncc(CO)c(OC)c3C)[nH]c2c1 (centres unmarked) | CYP2C19 |  | human, plasma | oral, 20 mg omeprazole, Day 14, together with: encorafenib at steady state | relative to: Day -7 | total AUClast decrease | 37% |
